Measurements pooled from the literature.
Parts stem from different laboratories: compare values within a part only.

Set 1
Target: PABPC1L2, full length, GST fusion (mouse, UniProt A0ABA7IW68)
Method: RNAcompete
Form: RNA
Sample: in vitro
Tested at: 20 nM
Notes: 7-mer, probes averaged, single round
Baseline: mean of 7-mers
Reading: higher = stronger binding
Endpoint: 7-mer Z-score
Target sequence (chain): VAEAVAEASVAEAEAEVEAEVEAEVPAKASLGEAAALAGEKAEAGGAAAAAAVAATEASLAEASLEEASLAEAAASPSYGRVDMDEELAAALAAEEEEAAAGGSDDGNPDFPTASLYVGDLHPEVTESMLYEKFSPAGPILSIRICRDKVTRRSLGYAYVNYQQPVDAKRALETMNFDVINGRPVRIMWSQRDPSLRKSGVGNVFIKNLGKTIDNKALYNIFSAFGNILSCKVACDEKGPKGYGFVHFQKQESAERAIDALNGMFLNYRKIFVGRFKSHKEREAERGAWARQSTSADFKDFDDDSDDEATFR
Sequence = AGUAACC; result = -0.115
Sequence = UGCCGUC; result = -0.476
Sequence = GAUUUAG; result = 0.222
Sequence = ACAUACG; result = -0.0138
Sequence = GGUAAGA; result = 0.0442
Sequence = CAGGGAA; result = 0.436

Set 2
Target: Histone acetyltransferase KAT6A, winged helix 1, GST fusion (KAT6A, Homo sapiens, UniProt Q92794, residues 1-85)
Method: protein binding microarray
Form: double-stranded DNA, one strand shown
Sample: in vitro
Tested at: not given
Notes: 8-mer, flanks averaged, mean of 2 arrays, mostly near background
Baseline: not given
Reading: higher = stronger binding
Endpoint: E-score
Construct (chain): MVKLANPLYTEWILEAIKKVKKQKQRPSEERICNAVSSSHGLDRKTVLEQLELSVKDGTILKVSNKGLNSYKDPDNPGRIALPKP
Sequence = ATCGAAGG; result = 0.00637
Sequence = CTCCTACA; result = -0.168
Sequence = CGCTTTTC; result = 0.186
Sequence = ATTGTATC; result = -0.0817

Set 3
Target: Sal-like protein 4, full length isoform A (SALL4, Homo sapiens, UniProt Q9UJQ4, residues 1-1053)
Chain of UniProt Q9UJQ4 (whole entry, looked up): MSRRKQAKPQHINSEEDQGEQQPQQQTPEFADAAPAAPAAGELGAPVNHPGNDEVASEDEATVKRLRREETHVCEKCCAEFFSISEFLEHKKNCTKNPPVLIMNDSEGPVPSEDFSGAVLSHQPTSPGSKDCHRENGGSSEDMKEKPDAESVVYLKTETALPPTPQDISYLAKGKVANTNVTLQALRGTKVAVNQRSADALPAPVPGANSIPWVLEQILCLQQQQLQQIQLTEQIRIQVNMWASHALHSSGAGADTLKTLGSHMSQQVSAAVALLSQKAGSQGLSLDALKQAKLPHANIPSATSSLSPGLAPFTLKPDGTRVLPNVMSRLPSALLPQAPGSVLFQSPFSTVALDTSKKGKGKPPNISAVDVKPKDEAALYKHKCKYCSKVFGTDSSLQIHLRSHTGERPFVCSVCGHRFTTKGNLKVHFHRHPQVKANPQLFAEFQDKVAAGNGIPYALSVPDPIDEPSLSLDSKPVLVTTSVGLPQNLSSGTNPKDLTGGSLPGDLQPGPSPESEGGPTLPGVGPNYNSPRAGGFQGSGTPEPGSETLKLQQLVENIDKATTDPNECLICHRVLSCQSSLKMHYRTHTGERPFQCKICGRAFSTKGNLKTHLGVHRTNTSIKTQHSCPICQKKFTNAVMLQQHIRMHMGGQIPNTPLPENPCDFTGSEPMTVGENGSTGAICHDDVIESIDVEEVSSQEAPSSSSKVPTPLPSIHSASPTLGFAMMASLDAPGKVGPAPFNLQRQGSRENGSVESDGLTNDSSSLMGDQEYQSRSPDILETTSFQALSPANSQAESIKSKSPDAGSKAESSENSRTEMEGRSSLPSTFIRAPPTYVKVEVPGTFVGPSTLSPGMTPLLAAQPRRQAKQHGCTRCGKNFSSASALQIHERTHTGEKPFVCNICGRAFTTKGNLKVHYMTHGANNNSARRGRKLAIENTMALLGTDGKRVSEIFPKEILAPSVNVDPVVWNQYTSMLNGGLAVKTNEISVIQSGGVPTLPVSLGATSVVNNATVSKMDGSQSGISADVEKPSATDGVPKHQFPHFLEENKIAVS
Method: universal PBM
Form: double-stranded DNA, one strand shown
Sample: in vitro
Tested at: 600 nM
Notes: 8-mer, flanks averaged, mean of replicates
Reading: higher = stronger binding
Endpoint: E-score
Sequence = AACTCAAG; result = 0.147
Sequence = CATATGGG; result = -0.0104
Sequence = GGTAGGTA; result = -0.0868
Sequence = GGGCTTTA; result = -0.2
Sequence = ACTGACTG; result = -0.164

Mixed results
Molecule = PhoQ, residues 284 288 289 292 302 303 SNGLAW; target = PhoP, residues 12 14 15 18 19 NHFRA (Escherichia coli, UniProt P23836); test = Sort-seq, refers to: YFP reporter; test system = E. coli; setting = PhoQ-PhoP variant library, with: 10 µM Mg2+; scale = baseline: high Mg2+ state, higher = stronger signaling; endpoint = fold induction; result = 6.16

Excerpt of the above (set 2):
Sequence = ATCGAAGG; result = 0.00637
Sequence = CTCCTACA; result = -0.168
